Measured values pooled from the literature.
Lines come from different studies, so protocols differ.
Organism: Staphylococcus aureus

| Compound | test | system | conditions | MIC |
| --- | --- | --- | --- | --- |
| CC[C@H](C)[C@H](NC(=O)[C@H](CCCN)NC(=O)[C@H](CC(N)=O)NC(=O)[C@H](Cc1c[nH]c2ccccc12)NC(=O)[C@H](Cc1ccccc1)NC(=O)[C@H](CCCN)NC(=O)[C@H](CCCCNC(=N)N)NC(=O)[C@H](CC(C)C)NC(=O)[C@H](Cc1c[nH]c2ccccc12)NC(=O)[C@H](CCCN)NC(=O)[C@H](CCCCNC(=N)N)NC(=O)[C@H](CC(C)C)NC(=O)CNC(C)=O)C(=O)N[C@@H](CCCN)C(=O)N[C@@H](CCCCNC(=N)N)C(N)=O | broth microdilution | multidrug-resistant |  | 3.12 µM |
| c1ccc(CCNC2CCCc3c2[nH]c2ccc(C4CCCCC4)cc32)cc1 (centres unmarked) | broth microdilution | SG511 daptomycin-resistant, cation-adjusted Mueller-Hinton broth |  | 2 µg/mL |
| CC(C)C[C@@H]1NC(=O)[C@H](C)NC(=O)[C@H](NC(=O)[C@H](CO)NC(=O)[C@@H](CCCCN)NC(=O)[C@@H](CC(C)C)NC(=O)[C@H](C)N)[C@H](C(N)=O)OC(=O)[C@H](CC(C)C)NC1=O |  | MSSA ATCC 29213 | TFA salt | 16 µg/mL |
| O=C1c2ccccc2NC(c2ccccc2O)N1/N=C/c1ccccc1O (centres unmarked) | microbial growth, broth dilution |  | 24 h, drug-resistant strain, clinical isolate | > 256 µg/mL |
| CC[C@H](C)[C@H](NC(=O)[C@H](CCCCN)NC(=O)[C@H](CCCNC(=N)N)NC(=O)[C@@H](NC(=O)[C@H](CC(C)C)NC(=O)[C@H](CCCCN)NC(=O)[C@H](CC(C)C)NC(=O)[C@@H](NC(=O)[C@H](CCCCN)NC(=O)CNC(=O)[C@H](Cc1ccccc1)NC(=O)[C@@H](N)Cc1ccccc1)C(C)C)[C@@H](C)CC)C(=O)N[C@@H](Cc1ccccc1)C(N)=O | broth microdilution | USA300 MRSA |  | 3.12 µM |
| O=C(O)CC[C@@H]1NC(=O)[C@H](CCC(=O)O)NC(=O)[C@H](CCC(=O)O)NC(=O)[C@H](Cc2c[nH]c3ccccc23)NC(=O)[C@H](Cc2c[nH]c3ccccc23)NC(=O)[C@H](Cc2c[nH]c3ccccc23)NC(=O)[C@H](CCC(=O)O)NC1=O | broth microdilution | MRSA ATCC 43300 | 37 °C | > 134 µg/mL |
| COc1ccc2ccc3c(c2c1)C=[N+]1C2CCCCC2[N+]2=Cc4ccc(OCCN5CCCCC5)cc4[O][Au-]21[O]3.F[P-](F)(F)(F)(F)F (centres unmarked) | bacterial growth, broth microdilution | vancomycin-intermediate | 24 h | 20 µM |
| CN[C@H](CC(C)C)C(=O)N[C@H]1C(=O)N[C@@H](CC(N)=O)C(=O)N[C@H]2C(=O)N[C@H]3C(=O)N[C@H](C(=O)N[C@H](C(=O)NCc4cn(CCOCCOCCOCCC(=O)N[C@H](C(=O)N[C@@H](CCN)C(=O)N[C@H]5CCNC(=O)[C@H]([C@@H](C)O)NC(=O)[C@H](CCN)NC(=O)[C@H](CCN)NC(=O)[C@H](CC(C)C)NC(=O)[C@@H](CC(C)C)NC(=O)[C@H](CCN)NC5=O)[C@@H](C)O)nn4)c4cc(O)cc(O)c4-c4cc3ccc4O)[C@H](O)c3ccc(c(Cl)c3)Oc3cc2cc(c3O[C@@H]2O[C@H](CO)[C@@H](O)[C@H](O)[C@H]2O[C@H]2C[C@](C)(N)[C@H](O)[C@H](C)O2)Oc2ccc(cc2Cl)[C@H]1O | broth microdilution | MSSA ATCC 29213 | 20 to 24 h, 37 °C, 0.002% polysorbate 80 | 0.25 µg/mL |
| CCCCCCCCCCCCCC(=O)N[C@@H]1CCNC(=O)[C@H](CC(=O)O)NC(=O)[C@H](C(C)C)NC(=O)[C@@H](Cc2ccc(O)cc2)NC(=O)[C@H](CCN)NC(=O)[C@H](CC(C)C)NC(=O)[C@@H](Cc2ccccc2)NC(=O)[C@H](CCN)NC(=O)[C@H](CC(C)C)NC(=O)[C@H](CCN)NC(=O)[C@H]([C@@H](C)O)NC1=O | broth microdilution | BNCC 186335 |  | 4 µg/mL |
| CC[C@H](C)[C@H](NC(=O)CNC(=O)[C@@H](NC(=O)[C@@H](N)Cc1ccccc1)[C@@H](C)CC)C(=O)N[C@@H](CCSC)C(=O)N[C@@H](C)C(=O)N[C@H](C(=O)N[C@@H](CC(C)C)C(=O)N[C@@H](C)C(=O)N[C@@H](CO)C(=O)N[C@@H](CC(C)C)C(=O)N[C@H](C(=O)N[C@H](C(=O)N1CCC[C@H]1C(=O)N[C@@H](CCCCN)C(=O)N[C@@H](CC(C)C)C(=O)N[C@H](C(=O)N[C@@H](CCC(=O)O)C(=O)N[C@@H](CCCCN)C(=O)N[C@H](C(=O)N[C@@H](CCCCN)C(=O)N[C@@H](CCC(N)=O)C(=O)N[C@@H](C)C(=O)N[C@@H](CCCNC(=N)N)C(N)=O)[C@@H](C)CC)[C@@H](C)CC)[C@@H](C)CC)C(C)C)[C@@H](C)O | broth microdilution | MRSA ATCC 33592 |  | 12.5 to 25 µM |
| CCCCCCCCCCCCCC[S+]([O-])CC1OC(OC2C(N)CC(N)C(OC3OC(CN)C(O)CC3N)C2O)C(O)C(N)C1O (mixture of isomers) |  | NorA |  | 18.8 µg/mL |
| Cc1cc(=O)nc(NC(=O)NCCCCCCNC(=O)NCCCCCCNC(=O)OCCOCCOCCOCCOCCOCCOCC(=O)N[C@@H](CCCCN)C(=O)N[C@@H](CCCCN)C(=O)N[C@@H](Cc2ccccc2)C(=O)N2CCC[C@H]2C(=O)N[C@@H](Cc2c[nH]c3ccccc23)C(=O)N[C@@H](Cc2c[nH]c3ccccc23)C(=O)N[C@@H](Cc2c[nH]c3ccccc23)C(=O)N2CCC[C@H]2C(=O)N[C@@H](Cc2ccccc2)C(=O)N[C@@H](CCCCN)C(=O)N[C@@H](CCCCN)C(N)=O)[nH]1 |  | MRSA AMC 201, RPMI medium | 24 h, 37 °C | 30 µM |
| CN1C(=O)[C@@H]2NC(=O)[C@@H]3NC(=O)[C@@H](c4ccc(O)cc4)NC(=O)[C@H](NC(=O)C(NCc4ccc(B(O)O)cc4)c4ccc(O)cc4)Cc4c[nH]c5cc(ccc45)-c4cc3cc(c4O)Oc3ccc(cc3)C[C@H]1C(=O)N[C@@H](C(=O)O)c1ccc(O)c(c1)Oc1ccc2cc1 (some centres unmarked) |  | ATCC 33591 MRSA, Mueller-Hinton broth |  | 8 µg/mL |
| O=C1c2ccccc2NC(c2ccc([N+](=O)[O-])cc2)N1/N=C/c1ccc([N+](=O)[O-])cc1 (centres unmarked) | microbial growth, broth dilution | MRSA | 24 h, drug-resistant strain, clinical isolate | > 256 µg/mL |
| CCO[C@H]1[C@H](O)[C@@H](N)[C@@H](O[C@H]2[C@H](O[C@@H]3O[C@H](CO)[C@@H](O[C@H]4O[C@@H](CN)[C@@H](O)[C@H](O)[C@H]4N)[C@H]3O)[C@@H](O)[C@H](N)C[C@@H]2N)O[C@@H]1CO | broth microdilution | MRSA isolate AG 038 |  | 8 to 16 µg/mL |
| COc1ccc2ccc3c(c2c1)C=[N+]1C2CCCCC2[N+]2=Cc4cccc(C)c4[O][Au-]21[O]3.F[P-](F)(F)(F)(F)F (centres unmarked) | bacterial growth, broth microdilution | vancomycin-intermediate | 24 h | 10 µM |
| CC[C@H](C)[C@H](NC(=O)[C@@H](Cc1ccccc1)NC)C(=O)OC[C@H](N)C(=O)N[C@H](CCC(N)=O)C(=O)N[C@@H](C(=O)N[C@H](C(=O)OC[C@H](N)C(=O)N[C@H]1C(=O)N[C@@H](C)C(=O)N[C@@H](C2CCCCC2)C(=O)N[C@@H]([C@@H](C)CC)C(=O)O[C@H]1C)[C@@H](C)CC)[C@@H](C)CC | broth microdilution | ATCC 29213, MSSA, Mueller-Hinton broth | 16 h, 37 °C | 0.5 µg/mL |
| CCCCCCCNS(=O)(=O)c1ccc(-n2nnc(/C(C)=N/NC(=N)N)c2C)cc1 | microbial growth, broth dilution | MRSA USA300 | drug-resistant strain | 64 µg/mL |
| CC(=O)N[C@@H](CCCNC(=N)N)C(=O)N[C@@H](Cc1c[nH]c2ccccc12)C(=O)N[C@@H](CCCNC(=N)N)C(=O)N[C@@H](Cc1c[nH]c2ccccc12)C(=O)N[C@@H](Cc1c[nH]c2ccccc12)C(=O)N[C@@H](CCCCN)C(=O)N1CCC[C@H]1C(=O)N[C@H](C(N)=O)C(C)C |  | MSSA ATCC 29213, MEM medium | overnight, 37 °C | 11.3 to 22.7 µM |
| CCC[C@@H]1NC(=O)[C@@H]([C@@H](C)O)NC(=O)CNC(=O)[C@H](CC(=O)O)NC(=O)CNC(=O)[C@H](CC(=O)O)NC(=O)CNC(=O)[C@H]2CCCCN2C(=O)[C@@H](NC(=O)[C@H](CC(=O)O)NC(=O)/C=C/CCCCCCCCCC(C)C)CNC(=O)[C@@H]2CCCN2C1=O |  | MRSA USA300 | together with: Ca2+ 1 mM | 16 µg/mL |
| CC(C)CS[C@H]1[C@H](O)[C@@H](N)[C@@H](O[C@H]2[C@H](O[C@@H]3O[C@H](CO)[C@@H](O[C@H]4O[C@@H](CN)[C@@H](O)[C@H](O)[C@H]4N)[C@H]3O)[C@@H](O)[C@H](N)C[C@@H]2N)O[C@@H]1CO |  | methicillin-resistant, AAC(6') ANT(4',4'') APH(3') |  | 2 µg/mL |
| NC(=O)c1c(F)ccc(OCc2nc3cc(Cl)cnc3s2)c1F | broth microdilution | ATCC 29213 | 2% BSA added | 2 µg/mL |
| CCCCc1ccc(N2C(=O)/C(=N\NC(=N)N)c3cc(F)ccc32)cc1 | broth microdilution | BAA41 MRSA | 18 h, 37 °C | 12 µg/mL |

Some of these lines once more:
| Compound | test | system | conditions | MIC |
| --- | --- | --- | --- | --- |
| CCCCCCCCCCCCCC[S+]([O-])CC1OC(OC2C(N)CC(N)C(OC3OC(CN)C(O)CC3N)C2O)C(O)C(N)C1O (mixture of isomers) |  | NorA |  | 18.8 µg/mL |
| Cc1cc(=O)nc(NC(=O)NCCCCCCNC(=O)NCCCCCCNC(=O)OCCOCCOCCOCCOCCOCCOCC(=O)N[C@@H](CCCCN)C(=O)N[C@@H](CCCCN)C(=O)N[C@@H](Cc2ccccc2)C(=O)N2CCC[C@H]2C(=O)N[C@@H](Cc2c[nH]c3ccccc23)C(=O)N[C@@H](Cc2c[nH]c3ccccc23)C(=O)N[C@@H](Cc2c[nH]c3ccccc23)C(=O)N2CCC[C@H]2C(=O)N[C@@H](Cc2ccccc2)C(=O)N[C@@H](CCCCN)C(=O)N[C@@H](CCCCN)C(N)=O)[nH]1 |  | MRSA AMC 201, RPMI medium | 24 h, 37 °C | 30 µM |
| CN1C(=O)[C@@H]2NC(=O)[C@@H]3NC(=O)[C@@H](c4ccc(O)cc4)NC(=O)[C@H](NC(=O)C(NCc4ccc(B(O)O)cc4)c4ccc(O)cc4)Cc4c[nH]c5cc(ccc45)-c4cc3cc(c4O)Oc3ccc(cc3)C[C@H]1C(=O)N[C@@H](C(=O)O)c1ccc(O)c(c1)Oc1ccc2cc1 (some centres unmarked) |  | ATCC 33591 MRSA, Mueller-Hinton broth |  | 8 µg/mL |
